Experimental data from different studies.
Compare with care: the assays were run in different laboratories. “And” joins repeats or separate records; there may be more than shown. Numbers after ± are the reported error.
TNK2: Activated CDC42 kinase 1 (TNK2, Homo sapiens, UniProt Q07912)
Chain of UniProt A5GZW8 (whole entry, looked up): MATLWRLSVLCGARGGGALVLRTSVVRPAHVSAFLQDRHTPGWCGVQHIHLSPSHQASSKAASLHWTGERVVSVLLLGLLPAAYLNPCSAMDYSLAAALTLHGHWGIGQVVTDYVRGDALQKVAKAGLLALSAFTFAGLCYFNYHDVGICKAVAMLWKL
Chain of UniProt Q007T0 (whole entry, looked up): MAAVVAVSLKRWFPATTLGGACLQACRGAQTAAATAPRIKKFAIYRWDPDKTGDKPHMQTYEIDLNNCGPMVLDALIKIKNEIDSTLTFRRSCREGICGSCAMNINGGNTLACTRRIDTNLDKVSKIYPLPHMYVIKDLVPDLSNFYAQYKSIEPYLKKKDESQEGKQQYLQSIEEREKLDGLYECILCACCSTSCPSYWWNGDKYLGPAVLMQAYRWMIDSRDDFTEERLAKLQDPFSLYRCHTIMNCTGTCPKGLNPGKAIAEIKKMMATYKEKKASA
Chain of UniProt Q07912 (whole entry, looked up): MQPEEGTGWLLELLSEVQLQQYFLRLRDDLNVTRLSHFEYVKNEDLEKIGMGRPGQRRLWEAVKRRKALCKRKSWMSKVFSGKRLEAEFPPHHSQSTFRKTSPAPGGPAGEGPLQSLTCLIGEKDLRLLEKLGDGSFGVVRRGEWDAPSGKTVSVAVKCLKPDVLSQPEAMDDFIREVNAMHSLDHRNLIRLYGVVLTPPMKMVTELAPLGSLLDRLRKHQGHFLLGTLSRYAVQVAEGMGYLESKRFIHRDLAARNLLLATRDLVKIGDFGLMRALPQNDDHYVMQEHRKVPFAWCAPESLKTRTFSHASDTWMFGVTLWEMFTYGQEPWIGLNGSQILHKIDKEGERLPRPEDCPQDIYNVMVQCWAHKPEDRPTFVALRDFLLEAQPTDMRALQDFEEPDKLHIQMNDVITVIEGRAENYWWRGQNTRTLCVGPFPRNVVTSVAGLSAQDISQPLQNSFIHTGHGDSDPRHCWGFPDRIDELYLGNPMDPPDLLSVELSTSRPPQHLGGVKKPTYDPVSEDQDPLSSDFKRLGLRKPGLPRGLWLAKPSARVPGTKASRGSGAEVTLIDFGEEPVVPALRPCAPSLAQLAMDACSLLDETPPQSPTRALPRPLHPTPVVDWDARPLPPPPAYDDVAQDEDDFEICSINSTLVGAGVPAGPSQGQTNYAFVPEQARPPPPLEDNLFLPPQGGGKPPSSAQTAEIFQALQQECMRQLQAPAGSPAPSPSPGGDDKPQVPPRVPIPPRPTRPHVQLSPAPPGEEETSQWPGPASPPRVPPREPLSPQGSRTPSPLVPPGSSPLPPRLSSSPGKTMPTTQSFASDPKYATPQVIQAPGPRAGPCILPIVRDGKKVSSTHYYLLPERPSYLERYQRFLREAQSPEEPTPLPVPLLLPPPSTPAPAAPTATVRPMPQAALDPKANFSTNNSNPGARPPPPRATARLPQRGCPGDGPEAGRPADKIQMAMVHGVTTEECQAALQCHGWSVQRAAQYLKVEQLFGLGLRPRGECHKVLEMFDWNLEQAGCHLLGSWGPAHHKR
Chain of UniProt D0VWV4 (whole entry, looked up): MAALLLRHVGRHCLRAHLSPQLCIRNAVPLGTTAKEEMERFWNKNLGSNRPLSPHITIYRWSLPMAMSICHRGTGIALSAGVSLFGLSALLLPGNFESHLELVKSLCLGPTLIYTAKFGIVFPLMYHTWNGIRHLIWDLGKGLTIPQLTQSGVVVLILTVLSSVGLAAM
Chain of UniProt P0A988 (whole entry, unmodified, looked up): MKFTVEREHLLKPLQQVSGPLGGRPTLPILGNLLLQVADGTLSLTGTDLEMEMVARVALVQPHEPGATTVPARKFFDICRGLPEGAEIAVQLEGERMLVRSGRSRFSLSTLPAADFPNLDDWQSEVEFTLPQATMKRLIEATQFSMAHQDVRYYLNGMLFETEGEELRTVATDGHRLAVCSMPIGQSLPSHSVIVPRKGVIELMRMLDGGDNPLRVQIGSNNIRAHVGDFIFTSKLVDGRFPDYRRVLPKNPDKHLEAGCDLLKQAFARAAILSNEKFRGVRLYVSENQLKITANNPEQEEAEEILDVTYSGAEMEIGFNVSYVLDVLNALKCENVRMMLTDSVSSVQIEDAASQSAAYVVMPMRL
Chain of UniProt P53778 (whole entry, looked up): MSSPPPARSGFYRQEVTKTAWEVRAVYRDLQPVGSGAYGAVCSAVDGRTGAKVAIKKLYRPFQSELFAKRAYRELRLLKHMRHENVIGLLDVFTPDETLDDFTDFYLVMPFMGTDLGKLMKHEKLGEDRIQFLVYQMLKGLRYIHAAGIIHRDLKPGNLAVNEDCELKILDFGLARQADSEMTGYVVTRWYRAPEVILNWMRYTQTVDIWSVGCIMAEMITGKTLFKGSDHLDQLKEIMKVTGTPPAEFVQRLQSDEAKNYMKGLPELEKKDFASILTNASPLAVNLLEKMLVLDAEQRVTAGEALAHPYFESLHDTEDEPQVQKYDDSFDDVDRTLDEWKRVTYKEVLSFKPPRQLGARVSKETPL
Chain of UniProt P42336 (whole entry, unmodified, looked up): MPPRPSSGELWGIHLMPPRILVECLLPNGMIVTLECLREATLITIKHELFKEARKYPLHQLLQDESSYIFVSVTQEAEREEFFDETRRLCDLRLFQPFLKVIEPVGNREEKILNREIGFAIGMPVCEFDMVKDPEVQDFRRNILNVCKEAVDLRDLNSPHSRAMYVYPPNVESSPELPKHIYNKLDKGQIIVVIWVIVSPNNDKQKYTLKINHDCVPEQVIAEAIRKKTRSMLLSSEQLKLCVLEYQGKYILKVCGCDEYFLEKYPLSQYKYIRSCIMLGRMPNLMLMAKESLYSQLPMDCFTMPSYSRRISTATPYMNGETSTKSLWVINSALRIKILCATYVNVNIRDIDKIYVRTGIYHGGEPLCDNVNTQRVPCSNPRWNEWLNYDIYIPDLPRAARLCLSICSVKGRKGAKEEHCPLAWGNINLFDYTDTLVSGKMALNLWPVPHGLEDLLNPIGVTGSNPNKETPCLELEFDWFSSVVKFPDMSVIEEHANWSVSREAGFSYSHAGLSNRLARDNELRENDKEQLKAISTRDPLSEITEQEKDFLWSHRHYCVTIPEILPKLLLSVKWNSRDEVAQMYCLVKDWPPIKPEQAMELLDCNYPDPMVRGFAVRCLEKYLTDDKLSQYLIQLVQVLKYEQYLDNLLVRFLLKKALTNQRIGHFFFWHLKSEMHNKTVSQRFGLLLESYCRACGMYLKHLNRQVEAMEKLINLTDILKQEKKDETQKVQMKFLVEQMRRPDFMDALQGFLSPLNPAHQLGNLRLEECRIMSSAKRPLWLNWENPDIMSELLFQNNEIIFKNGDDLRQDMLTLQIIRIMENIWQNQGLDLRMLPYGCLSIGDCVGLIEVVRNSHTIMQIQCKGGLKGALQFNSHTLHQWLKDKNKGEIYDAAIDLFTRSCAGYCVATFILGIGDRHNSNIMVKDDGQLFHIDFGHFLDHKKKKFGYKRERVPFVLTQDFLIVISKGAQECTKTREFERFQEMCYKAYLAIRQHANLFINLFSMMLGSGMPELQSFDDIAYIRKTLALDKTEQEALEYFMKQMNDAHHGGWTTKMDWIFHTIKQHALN
Chain of UniProt Q13464 (whole entry, looked up): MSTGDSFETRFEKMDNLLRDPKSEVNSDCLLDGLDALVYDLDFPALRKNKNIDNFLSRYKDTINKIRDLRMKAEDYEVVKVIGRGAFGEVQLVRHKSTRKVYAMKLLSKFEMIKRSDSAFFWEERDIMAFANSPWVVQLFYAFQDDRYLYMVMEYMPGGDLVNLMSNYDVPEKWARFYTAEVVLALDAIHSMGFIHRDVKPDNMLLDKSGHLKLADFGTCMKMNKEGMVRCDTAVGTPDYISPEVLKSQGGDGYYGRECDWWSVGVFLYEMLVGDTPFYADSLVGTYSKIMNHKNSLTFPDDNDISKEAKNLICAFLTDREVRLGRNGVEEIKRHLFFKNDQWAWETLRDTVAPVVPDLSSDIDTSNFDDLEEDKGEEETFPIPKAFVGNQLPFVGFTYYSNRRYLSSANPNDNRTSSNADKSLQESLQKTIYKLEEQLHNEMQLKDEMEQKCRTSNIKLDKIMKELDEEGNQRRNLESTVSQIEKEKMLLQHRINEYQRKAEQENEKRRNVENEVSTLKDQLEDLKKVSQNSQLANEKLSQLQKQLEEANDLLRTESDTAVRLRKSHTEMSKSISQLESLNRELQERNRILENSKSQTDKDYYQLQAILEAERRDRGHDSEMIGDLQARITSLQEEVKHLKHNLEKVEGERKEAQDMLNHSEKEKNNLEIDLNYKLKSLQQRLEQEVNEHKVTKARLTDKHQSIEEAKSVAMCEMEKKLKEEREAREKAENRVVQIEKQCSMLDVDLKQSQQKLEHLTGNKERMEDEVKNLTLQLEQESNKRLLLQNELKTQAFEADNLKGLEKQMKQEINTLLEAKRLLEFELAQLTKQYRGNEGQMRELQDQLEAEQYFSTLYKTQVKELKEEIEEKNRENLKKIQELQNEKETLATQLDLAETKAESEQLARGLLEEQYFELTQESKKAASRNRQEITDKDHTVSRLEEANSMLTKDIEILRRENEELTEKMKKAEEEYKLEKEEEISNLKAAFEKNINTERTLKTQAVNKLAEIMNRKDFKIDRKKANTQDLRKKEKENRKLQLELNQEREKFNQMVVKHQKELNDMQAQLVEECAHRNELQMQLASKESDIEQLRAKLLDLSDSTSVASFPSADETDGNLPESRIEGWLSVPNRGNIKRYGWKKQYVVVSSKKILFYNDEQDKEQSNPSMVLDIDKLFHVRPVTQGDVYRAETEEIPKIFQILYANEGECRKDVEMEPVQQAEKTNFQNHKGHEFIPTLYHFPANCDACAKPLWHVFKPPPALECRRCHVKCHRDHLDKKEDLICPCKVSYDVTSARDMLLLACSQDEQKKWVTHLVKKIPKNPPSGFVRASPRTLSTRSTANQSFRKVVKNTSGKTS

Structure (SMILES) = COc1ccccc1-c1n[nH]c2nc(N[C@H]3CC[C@H](NS(=O)(=O)CC(C)C)CC3)ncc12; test = bead binding, competition bead pull-down, item: LINJ.03.0190; system = Leishmania donovani extract; setting = 10 µM; how to read = reference: vehicle; endpoint = relative abundance; result = 0.78
Structure (SMILES) = CC[C@@H](C)[C@@H]1CN([C@H](Cc2ccc3ccccc3c2)CN2CCC[C@H]2CN2CCNC[C@@H]2Cc2ccc3ccccc3c2)CCN1CCC12CC3CC(CC(C3)C1)C2; target or system = Oprd1 (Rattus norvegicus, UniProt P33533); test = radioligand binding; system = rat brain membranes; setting = 500 nM, pH 7.5, 25 °C, added: 2 nM [3H]DPDPE; endpoint = remaining binding; result = 95.2%
Structure (SMILES) = CON(C(=O)c1cn(C)nc1C(F)F)C(C)Cc1c(Cl)cc(Cl)cc1Cl (stereo not drawn); target or system = SDHD/SDHC/SDHB (Sus scrofa, UniProt A5GZW8+D0VWV4+Q007T0); test = enzyme activity, inhibitor, DCIP reduction; system = pig; setting = 0.6 µM, added: DCIP 5 µM; endpoint = reaction velocity; result = 0.00104 µM/s and 0.001 µM/s
Structure (SMILES) = CS(C)(=O)=Nc1ccc(-c2ccc(-c3nc4cc(O[C@@H]5CO[C@H]6[C@@H]5OC[C@H]6O)[nH]c4cc3F)cc2)cc1; target or system = MAPK12 (Homo sapiens, UniProt P53778); test = enzyme activity, inhibitor; setting = 10 µM; endpoint = inhibition; result = -5%
Structure (SMILES) = CC(=O)N[C@@H](CCC(N)=O)C(=O)N[C@@H](CC1CCCCC1)C(=O)N[C@@H](CNC(=O)CCl)C(=O)N[C@@H](CC(C)C)C(=O)N[C@@H](Cc1ccccc1)C(=O)O; target or system = Beta sliding clamp (Escherichia coli, UniProt P0A988); test = binding, isothermal titration calorimetry; setting = 22 °C; endpoint = -TΔS; result = -0.3 kcal/mol
Structure (SMILES) = CC(C)(C)C(=O)OCOP(=O)(OCOC(=O)C(C)(C)C)C1CCCN(O)C1=O (stereo not drawn); target or system = NCI-H460; endpoint = log LC50; result = > -4 log M
Structure (SMILES) = O=C1NC(=O)c2c1c1cc(F)c[n+]3c1c1c2c2cc(O)ccc2[n]1[Ru-4]312([N]=C=S)[S+]3CC[S+]1CC[S+]2CC3 (stereo not drawn); target or system = ROCK1 (Homo sapiens, UniProt Q13464); test = enzyme activity; setting = 100 nM, human enzyme, added: 10 µM ATP; how to read = reference: untreated; endpoint = remaining activity; result = 98%
Structure (SMILES) = N[C@H](C(=O)N1CCCC1)C1CCN(c2nccc3c(-c4ncc(Cl)cc4Cl)cccc23)CC1; target or system = PADI2 (Homo sapiens, UniProt Q9Y2J8); test = enzyme activity, inhibitor; setting = 3.84 µM, added: Ca2+ 0.25 mM; endpoint = inhibition; result = 98.7%
Structure (SMILES) = CCn1nc(Cl)c2c1-c1cnc(N)c(c1)O[C@H](C)c1cc(F)ccc1-c1nn(C)cc1C2; target or system = TNK2; test = kinase activity, inhibitor; how to read = reference: IC50 TNK2 over IC50 ALK; endpoint = selectivity ratio; result = 60 fold
Structure (SMILES) = Cc1sc2c(c1C)C(c1ccc(Cl)cc1)=NC(CC(=O)OC(C)(C)C)c1nnc(C)n1-2 (stereo not drawn); target or system = TBXA2R (Homo sapiens, UniProt P21731); test = ligand displacement, radioligand; setting = 1 µM; endpoint = inhibition; result = -19%
Structure (SMILES) = O=C1NC2(CC2)COc2ncc(F)cc2[C@H]2COCCN2c2ccn3ncc1c3n2; system = Sprague-Dawley rat, female, serum; setting = oral, 5 mg/kg/day, end of treatment, 4-week subacute toxicity; endpoint = serum total protein; result = 60.4 ± 2.1 g/L
Structure (SMILES) = CCN(N=Cc1cnc2ccc(Br)cn12)S(=O)(=O)c1cc([N+](=O)[O-])ccc1C; target or system = PIK3CA (Homo sapiens, UniProt P42336, H855E); how to read = reference: wild-type p110α; endpoint = IC50 fold change; result = 2.5
Structure (SMILES) = CC(C)CC(O)(CC(C)C)c1cn(C(=O)N2CCCC2)nn1; target or system = Acot1 (Mus musculus, UniProt O55137); test = enzyme activity, inhibitor; system = mouse, brain; setting = i.p., 0.8 mg/kg, 4 h, protein level; how to read = reference: vehicle; endpoint = ratio of ratios; result = 1.25
Structure (SMILES) = CN(C)[C@H]1C[C@@]23CC[C@@]4(O2)C(=CC[C@]2(C)[C@@H](c5ccc6ccncc6c5)CC[C@H]24)C=C3[C@@H](O)[C@@H]1O; target or system = TNK2; test = ATP probe labelling, inhibitor, KiNativ profiling; setting = 1 µM; endpoint = inhibition; result = -2%
Structure (SMILES) = COc1ccccc1-c1n[nH]c2nc(NC3CCN(C(=O)Cc4ccc(F)cc4F)CC3)ncc12; test = bead binding, competition bead pull-down, item: LINJ.25.1160; system = Leishmania donovani extract; setting = 10 µM; how to read = reference: vehicle; endpoint = relative abundance; result = 0.84
Structure (SMILES) = CC[C@H](C)[C@H](NC(=O)[C@H](CO)NC(=O)[C@H](Cc1ccc(O)cc1)NC(=O)[C@H](Cc1ccc(O)cc1)NC(=O)[C@H](CC(N)=O)NC(=O)CNC(=O)[C@H](CO)NC(=O)[C@H](Cc1ccc(O)cc1)NC(=O)[C@H](CO)NC(=O)[C@H](CO)NC(=O)[C@H](CC(N)=O)NC(=O)COCCOCCNC(=O)CN1CCN(CC(=O)O)CCN(CC(=O)O)CCN(CC(=O)O)CC1)C(=O)N[C@@H](CC(C)C)C(N)=O [copper-64 labelled]; test = dynamic PET; system = KPC mouse Ptf1a-CreER tdTomato, pancreas; setting = intravenous, 4.6 MBq/mouse, 7.5 min, 84 d after tamoxifen; endpoint = tissue uptake; result = 12 %ID/mL
Structure (SMILES) = CC(C)[C@H]1NC(=O)C[C@H]2/C=C/CCSSC[C@@H](NC1=O)C(=O)N[C@H](Cc1cccc3ccccc13)C(=O)NCC(=O)O2; target or system = Tyrosine-protein kinase Lyn, isoform A (LYN, Homo sapiens, UniProt P07948); setting = 10 µM; endpoint = inhibition; result = -1%
Structure (SMILES) = C#CCCCCOc1ccc2c(c1)CCCN2C(=O)CCl; target or system = CDC42BPB (Homo sapiens, UniProt Q9Y5S2); test = mass spectrometry profiling; system = H460 cell lysate; setting = 100 µM over 10 µM, UniProt Q9Y5S2; how to read = reference: high over low concentration; endpoint = reactivity ratio; result = 1.52
